Published values pooled from the literature.
Compare with care: the assays were run in different laboratories. ± marks the error that the study gave.

For `Cn1cc2cc1C(=O)NCCCC(=O)Nc1cn(C)c(n1)C(=O)Nc1cn(C)c(n1)C(=O)Nc1cc(n(C)c1)C(=O)Nc1cc(n(C)c1)C(=O)NC[C@H](N)CC(=O)Nc1cc(n(C)c1)C(=O)Nc1cc(n(C)c1)C(=O)Nc1cc(n(C)c1)C(=O)N2`, the plasma concentration was 3.9 µM (HPLC; C57BL/6 mice, pooled plasma; intraperitoneal, 120 nmol/animal, 1.5 h).
The plasma concentration of `CC(NCCc1nsc2ccccc12)c1cccc2c1OCO2` (centres unmarked) is reported as 100 ng/mL (CD-1 mice, male; subcutaneous, 3 mg/kg, 60 min).
For `COc1cccc(OCCN2CCC[C@H](CN3CCc4cc(OC)c(OC)cc4CC3=O)C2)c1`, “plasma concentration ratio” read < 1 (C57BL/6 mice, plasma; intraperitoneal, 20 mg/kg, 15 min; baseline: compound over cilobradine).
`CC(C)CCN(c1nc(C#N)nc(NC2COC2)n1)C(C)c1ccc(F)cc1` (centres unmarked) gave a plasma concentration of 57.7 ng/mL (female CD-1 mice; intraperitoneal, 10 mg/kg, 2 h).
`COc1ccc(OC)c(/C(=C\c2ccc(O)c(O)c2)C(=O)NCCc2ccc(O)cc2)c1` has a plasma concentration of 1 to 2 ng/mL (KM mice, plasma; oral, 50 mg/kg).
`Cc1cc(NC(=O)[C@H](O)c2cc(F)cc(F)c2)ccc1-c1cnc(N)c(C(=O)NC(C)C)c1` gave a plasma concentration of > 3220 ng/mL (female athymic nude mice, plasma; oral, 100 mg/kg single, up to 12 h).
`COc1ccc(OC)c(C(=Cc2ccc(O)c(OC)c2)C(=O)NCCc2ccc(O)cc2)c1`: plasma concentration “no effect” (C57BL mice, MPTP/p Parkinson model, plasma; oral, 75 mg/kg, 8 weeks; baseline: normal mice).
The plasma concentration of `CN(CCCNC(=O)c1cccc(C(=O)O)c1)CCCNC(=O)c1cc(NC(=O)c2cc(NC(=O)c3cc(NC(=O)c4cc(NC(=O)[C@H](N)CCNC(=O)c5cc(NC(=O)c6cc(NC(=O)c7nc(NC(=O)c8nccn8C)cn7C)cn6C)cn5C)cn4C)cn3C)cn2C)cn1C` is reported as 13.8 µM (HPLC; C57BL/6 mice, pooled plasma; intraperitoneal, 120 nmol/animal, 1.5 h).
With `CC1(C)C(/C=C/C2=C(Cl)C(=C/C=C3/N(CCCCCC(=O)O)c4ccccc4C3(C)C)/C[N+](C)(C)C2)=[N+](CCCCCC(=O)O)c2ccccc21` the plasma half-life was 1.67 h (CD-1 mice; intravenous, 25 nmol).
`N#Cc1nc(N2CCOCC2)nc(N(Cc2ccc(F)cc2)CC2CCCNC2)n1` (centres unmarked) has a plasma concentration of 200 ng/mL (female CD-1 mice; intraperitoneal, 10 mg/kg, 2 h).
`O=[N][Fe]1([N]=O)[S](CCO)[Fe]([N]=O)([N]=O)[S]1CCO` gave a plasma half-life of 0.9 ± 0.2 h (C57BL/6JNarl mice, plasma; oral, 13.25 mg/kg).

A few entries again:
`COc1ccc(OC)c(/C(=C\c2ccc(O)c(O)c2)C(=O)NCCc2ccc(O)cc2)c1` has a plasma concentration of 1 to 2 ng/mL (KM mice, plasma; oral, 50 mg/kg).
